Measured values of several laboratories.
Numbered parts are unrelated; each lists some results of a single study.

Series 1
Target: PABPC1L2, full length, GST fusion (mouse, UniProt A0ABA7IW68)
Method: RNAcompete
Form: RNA
Matrix: in vitro
Tested at: 20 nM
Notes: 7-mer, probes averaged, single round
Baseline: mean of 7-mers
Direction: higher = stronger binding
Target sequence (chain): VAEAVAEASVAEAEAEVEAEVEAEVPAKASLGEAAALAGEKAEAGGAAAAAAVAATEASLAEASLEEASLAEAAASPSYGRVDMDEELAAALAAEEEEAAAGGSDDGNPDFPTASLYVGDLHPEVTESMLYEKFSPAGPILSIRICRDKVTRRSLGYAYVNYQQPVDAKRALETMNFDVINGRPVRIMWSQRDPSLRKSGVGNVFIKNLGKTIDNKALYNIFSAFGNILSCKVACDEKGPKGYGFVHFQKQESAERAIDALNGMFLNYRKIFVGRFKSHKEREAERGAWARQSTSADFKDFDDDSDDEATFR
Oligonucleotide | 7-mer Z-score
GGCUUUU | -0.0881
UAUACGG | -0.0826
UACCGCA | -0.217
GUCCGCC | -0.423
UCCGUGU | -0.396
AGCGAAC | -0.0536
GGGGUCA | 0.441
UUCGCCG | -0.398
GCGGCAA | 0.537
ACAAGCA | 0.207
GUACGGU | -0.0355
AUCCGAA | -0.00833
GCGCGAC | -0.0482
ACCCUCG | -0.284
UUUCUAG | -0.358
CGAUCAC | -0.126
UUCUACC | -0.197
GCCGACU | -0.146
GGCGCAA | 0.186
UGGUUGU | -0.416
ACGGGAA | 0.265
GUACGAA | -0.0609
AUAACGU | -0.115

Series 2
Target: Interferon regulatory factor 7, full length, phosphomimetic (IRF7, Homo sapiens, UniProt Q92985, residues 1-503, S471D/S472D/S475D/S476D/S477D/S483D/S484D/S487D)
Method: protein-binding microarray
Form: double-stranded DNA, one strand shown
Matrix: in vitro
Tested at: 2200 nM top
Notes: 60-bp whole probe
Added: salmon DNA 0.4 mg/ml
Baseline: random background probes
Direction: higher = stronger binding
Constant ends, left off below: GCCTAGCAC … GTCTTGATTCGCTTGACGCTGCTG
Residues (chain): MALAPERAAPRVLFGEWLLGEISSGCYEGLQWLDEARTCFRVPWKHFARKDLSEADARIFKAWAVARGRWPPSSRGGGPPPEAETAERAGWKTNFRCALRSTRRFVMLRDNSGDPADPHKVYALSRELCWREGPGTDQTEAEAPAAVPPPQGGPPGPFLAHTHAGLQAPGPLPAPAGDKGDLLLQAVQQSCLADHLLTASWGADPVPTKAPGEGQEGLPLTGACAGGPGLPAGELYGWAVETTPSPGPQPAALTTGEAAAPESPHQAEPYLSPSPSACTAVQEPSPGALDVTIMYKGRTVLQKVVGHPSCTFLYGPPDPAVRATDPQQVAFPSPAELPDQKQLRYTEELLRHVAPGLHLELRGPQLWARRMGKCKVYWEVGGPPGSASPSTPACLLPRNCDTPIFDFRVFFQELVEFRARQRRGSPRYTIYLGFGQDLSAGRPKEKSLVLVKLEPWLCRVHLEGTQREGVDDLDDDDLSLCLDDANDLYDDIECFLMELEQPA
Oligonucleotide | fitted relative affinity [z-score]
GACGTTTCCAGTTTCGAGACGTGCTAG | 5.45
GCAGGGTATAGGCATTCCCTGTGCTAG | -1.05
TTAGGACTGCTTATACTTTAGTGCTAG | -0.0525
GACCATTTCAGTTCCGAGACGTGCTAG | 1.83
GACGATCTCAGTTTCGAGCCGTGCTAG | 2.52
TCACTTACCTCACTCGTACTGTGCTAG | 2.26
TTACAGATGTTTTTCATTTTGTGCTAG | 2.27
TCAAATTTGAGTCACTGACTGTGCTAG | -0.235
TTAGAACTTAGTATCGATTAGTGCTAG | -0.0542
TCAATTTTTTTTCACTAACTGTGCTAG | 1.06
TTAGAACTAGGGACTGGATTAGTGCTA | -0.952
TTAGGTTTCCTAATGCTTTAGTGCTAG | 0.769
TCAAGAAAAAGAAAAAAAACTGTGCTA | -2.18
TTAGACCTGGGGACTGGATTAGTGCTA | -0.649
TTAGGTTCCGGTTTCGATTAGTGCTAG | 7.46
TCACCTCTTTTTTTGGTACTGTGCTAG | 1.82
GACGGTTCCGGTTTCGGGCCGTGCTAG | 4.64
TGCTTTCTCTTTCACTACTCGTGCTAG | 8.7
TTAGAACTGGGGACTGGAATAGTGCTA | -0.553

Series 3
Target: RNA binding protein fox-1 homolog 2, RRM domain, GST-SBP tag (RBFOX2, Homo sapiens, UniProt O43251-10, residues 100-194)
Method: RNA Bind-n-Seq
Form: RNA
Matrix: in vitro
Tested at: 365 nM
Notes: natural RNA segment, single round, ends assumed
Baseline: no-protein control
Direction: higher = stronger binding
Constant ends, left off below: GGGAGUUCUACAGUCCGACGAUC … UGGAAUUCUCGGGUGCCAA
Target sequence (chain): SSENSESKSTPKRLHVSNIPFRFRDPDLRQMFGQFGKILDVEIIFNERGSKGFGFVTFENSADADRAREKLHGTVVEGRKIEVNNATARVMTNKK
Oligonucleotide | RBNS enrichment (R)
CAUUAGACCCGUGUGCGCUGCUAAGGCCAUGGUAACCCUCUGGGGACAGGCAGCCAUUGAUGGGAGCAAAGCUUGCAGGUGCCUGGAGGUGGUCCCACCAUUGCCUGCAG | 1.77
AAUAAAUCAAAUUGGAAGAAAUUGGUAAAAGGCAUUUUAGUAAUAUUGGAACUUUUUGAAGUGUGUGGGACUAUGAGAAGAAUUUCUUACUAACAUUUCCAAUAUCUGUA | 0.609
GUGGUGCUCACCAGAGUCAGGCCACCCACUGGGCUCGGCAGGAGAUAGGGAGCCCCAUCACCUGACCACAGCCCCCCACCAACAUUCCCCCAAAAUGCAGCCUAGGAGGC | 0.45
GUAGUGCCCUUCCUUCAUCAGGCCAAAGCACCAAGUUGCUUCACUGCCUCGGCCUUUUGUCCAGCUCAGCCUGGGAUGUCUAUAGGGUUGAGGGUUUUAGACAAUCUCUA | 0.213
CCUCUGAGAAUUGGCUGCUGUUUCUAAUAUAAUUAUUUUCUAAGAUAGCCAGAUAGUUAGAAAAAGAUUUUCAUUGAUGACAUAUCUUUAAACUUUCUUGCAUCAGUAUU | 0.419
AAGCACAUUUUACCAUUGCUAUUGGGAGGAAGCAGAAGGCAGAUUGGAAAGAACAGCGAGUAAGUGCAAGUUGUGCUCCUUCCUUUUCCCUACCUGGUACCCUCCCUGGG | 0.54
UGGUCAUAGAUCUUGAUUUCUCUGAAUCGUGAUGACCACACCCAGUCAUCUUCACAGCAUAAUUGCAGGUGGCAGUAAAGAGAGUGUGCUGGGUAAGGAGCAGUUGCUGG | 0.983
AAUUUUGUCAUAUCUAUUAGGCCAGAAAGUAAUCACUGAAGAAGCAGAUGGUAGGAGCUGGAGCAAGGUGGUCCACAGGGGAAUGCCUCUCCUGUGCCCAUUUUAUAAUA | 0.524

Series 4
Target: Histone acetyltransferase KAT6A, winged helix 1, GST fusion (KAT6A, Homo sapiens, UniProt Q92794, residues 1-85)
Method: protein binding microarray
Form: double-stranded DNA, one strand shown
Matrix: in vitro
Tested at: not given
Notes: 8-mer, flanks averaged, mean of 2 arrays, mostly near background
Baseline: not given
Direction: higher = stronger binding
Residues (chain): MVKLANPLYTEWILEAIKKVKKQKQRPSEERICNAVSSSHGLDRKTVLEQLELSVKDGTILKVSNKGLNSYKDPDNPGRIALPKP
Oligonucleotide | E-score
CACGTAGC | -0.0713
CCTCCGTC | 0.0868
TCCGTGCA | 0.152
AGGCATAT | -0.151
ACTGCGGG | 0.146
CAGATACG | 0.14
ACACTCCG | -0.0935
ATACCTAT | -0.104
CTTACCTC | -0.272
ATGTGTAA | -0.137
ATCGAATA | -0.0675
ATGGGGGA | -0.0624
GAGGCAGA | -0.183
ATACGAGA | -0.166
CCACGATC | -0.152
AGGACGCA | 0.174
CATAATTA | -0.114
ATAACAGA | -0.145
ATCCCAGA | -0.132

Excerpt of the above (series 4):
Oligonucleotide | E-score
ATGTGTAA | -0.137
CTTACCTC | -0.272
CCTCCGTC | 0.0868
ATAACAGA | -0.145
GAGGCAGA | -0.183
